Measurements of several laboratories.
Parts stem from different laboratories: compare values within a part only. Changes are numbered by the printed parent chain.

Sample 1 — technique: RNA Bind-n-Seq; form: RNA; medium: in vitro; concentration: 200 nM; notes: whole 134-nt RNA, ends assumed; added: 150 mM KCl; reference: input library; reading: higher = stronger binding
Target: Ras GTPase-activating protein-binding protein 1, full length (G3BP1, Homo sapiens, UniProt Q13283)
UniProt Q13283, sequence (whole entry, looked up): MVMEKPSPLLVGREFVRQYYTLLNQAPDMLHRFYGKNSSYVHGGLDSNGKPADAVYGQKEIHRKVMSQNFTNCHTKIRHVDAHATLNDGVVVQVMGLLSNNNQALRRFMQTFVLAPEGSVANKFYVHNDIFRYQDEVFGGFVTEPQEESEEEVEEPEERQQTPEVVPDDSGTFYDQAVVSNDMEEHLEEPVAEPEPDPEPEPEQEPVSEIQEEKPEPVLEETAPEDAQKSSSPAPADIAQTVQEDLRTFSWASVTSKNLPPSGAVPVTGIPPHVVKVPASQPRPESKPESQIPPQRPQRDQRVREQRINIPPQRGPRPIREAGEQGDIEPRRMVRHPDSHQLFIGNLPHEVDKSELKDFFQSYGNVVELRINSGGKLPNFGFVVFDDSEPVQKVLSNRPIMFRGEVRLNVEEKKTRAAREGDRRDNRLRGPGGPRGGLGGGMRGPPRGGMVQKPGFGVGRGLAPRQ
Strand	log2 enrichment
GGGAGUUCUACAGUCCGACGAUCCCUGUGCUACACAUCGUAUGUACCGAAUCGGGUUUUUUUGGUUUUUUUGGUUUUUUUGGGGAAAGUAUUAUGUUACGCCGUUCGGAUCUGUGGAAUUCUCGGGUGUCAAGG	-1.21
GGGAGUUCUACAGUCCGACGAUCCUCAAGUCCUGUGCUACACAUCGUAUGUACCGAAUCGGUUUUUGGUUUGGUGGAAAGUAUUAUGUUACGCCGUUCGGAUCUGCACUUCCAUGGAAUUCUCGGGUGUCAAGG	-0.645
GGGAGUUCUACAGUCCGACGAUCGCAGGAAGUAAAAACAAAUGGAAAUGCUUCGGAUAGUGGCAGGGGUGGGGGUUGCUAAGGAAAGGGUGGGAUGGGAGUGGGUAAAGAGGUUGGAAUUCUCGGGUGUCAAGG	1.18
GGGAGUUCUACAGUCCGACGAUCUCAAGUCCUGUGCUACACAUCGUAUGUACCGAAUCGGGAAAAAGGGAGGGUGGGAAAGUAUUAUGUUACGCCGUUCGGAUCUGCACUUCCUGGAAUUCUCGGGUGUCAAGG	1.02
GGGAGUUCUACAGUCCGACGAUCAAGUCCUGUGCUACACAUCGUAUGUACCGAAUCGGUGGUUUUUUUGGUUUUUUUGGAAAGUAUUAUGUUACGCCGUUCGGAUCUGCACUUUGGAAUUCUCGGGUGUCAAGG	-1.36
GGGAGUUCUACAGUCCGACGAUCGAGCUGGAAGCUAUCAAAGCUCGAGUCAGGGAGAUGGAGGAAGAAGCUGAGAAGCUAAAGGAGCUACAGAACGAGGUAGAGAAGCAGAUGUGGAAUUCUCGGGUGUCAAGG	-0.451
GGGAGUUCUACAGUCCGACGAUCUGUCUUUCCUGGUGACUAGGAUGUCGUCGGAGGAGGACAAGAGCGUGGAGCAGCCGCAGCCGCCGCCACCACCCCCCGAGGAGCCUGGAGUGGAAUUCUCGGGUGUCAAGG	-0.276
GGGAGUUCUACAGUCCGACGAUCUCAAGUCCUGUGCUACACAUCGUAUGUACCGAAUCGGGCCGGGCCGGGGCCGGGAAAGUAUUAUGUUACGCCGUUCGGAUCUGCACUUCCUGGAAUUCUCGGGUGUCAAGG	0.3
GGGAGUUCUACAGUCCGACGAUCAGUCCUGUGCUACACAUCGUAUGUACCGAAUCGGAAAAAGGAAAAAAAGGAAAAAGGAAAGUAUUAUGUUACGCCGUUCGGAUCUGCACUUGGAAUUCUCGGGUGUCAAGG	-1.14
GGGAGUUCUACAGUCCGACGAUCAAGUCCUGUGCUACACAUCGUAUGUACCGAAUCGGAAAAAAAGGAAAGGUUUUUGGAAAGUAUUAUGUUACGCCGUUCGGAUCUGCACUUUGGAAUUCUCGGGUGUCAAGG	-1.62

Sample 2 — technique: DHFR PCA, deep sequencing; medium: yeast; added: (+)-ABA 0.11 µM; reference: wild-type fitted maximum; reading: higher = stronger binding
Target: ABI1, truncated, D143A, DHFR fusion (Arabidopsis thaliana)
Notes: methotrexate growth selection, single substitutions
Starting sequence: PYL1, truncated, DHFR fusion (Arabidopsis thaliana); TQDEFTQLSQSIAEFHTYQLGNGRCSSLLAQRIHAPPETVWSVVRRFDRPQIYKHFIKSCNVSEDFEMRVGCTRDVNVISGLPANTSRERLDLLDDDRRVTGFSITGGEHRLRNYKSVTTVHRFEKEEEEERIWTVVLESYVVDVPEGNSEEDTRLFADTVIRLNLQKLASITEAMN
Substitution	relative binding score [%]
T135D	0.1
N149T	49
A158D	0.988
A170Q	19.9
R24L	7.71
E64D	49.8
L112I	-0.996
R74T	0.187
I52G	2.68
T101E	-2.72
S9N	25.5
L28H	0.341
H122S	-2.9
D153P	0.847
T86H	23.9
E67R	16.5
N22W	5.81
D159A	-0.917
E131V	34.7
A175E	34.8
A13M	21.7
R32F	21.9
R49S	22.7
T1A	30.8
Y141R	-3.05

Sample 3 — technique: competition protein-binding microarray; form: double-stranded DNA, one strand shown; medium: in vitro; concentration: 2 µM; added: Cbf1 competitor, 0.05 µM; reading: higher = stronger binding
Target: Phosphate system positive regulatory protein PHO4, full length, GST-tagged (PHO4, Saccharomyces cerevisiae, UniProt P07270, residues 1-312)
Notes: whole 60-bp probe, lowest competitor level
Construct (chain): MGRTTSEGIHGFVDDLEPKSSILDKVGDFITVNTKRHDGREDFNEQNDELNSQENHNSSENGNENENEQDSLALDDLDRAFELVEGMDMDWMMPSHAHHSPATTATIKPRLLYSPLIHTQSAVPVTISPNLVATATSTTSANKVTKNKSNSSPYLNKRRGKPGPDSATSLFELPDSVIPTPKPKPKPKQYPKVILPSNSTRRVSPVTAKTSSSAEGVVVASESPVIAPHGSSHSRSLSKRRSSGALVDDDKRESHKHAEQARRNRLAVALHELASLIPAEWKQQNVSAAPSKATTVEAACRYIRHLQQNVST
Strand	fluorescence intensity
TAAGGGAATGTCCATCACGTGAAGGAAAATTCAAGTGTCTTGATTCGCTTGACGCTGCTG	12800 a.u.
TTCTTTGGTGATTCTGGCGTGATGGAACATTCGTATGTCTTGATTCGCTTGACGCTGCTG	5570 a.u.
CCATCAATTTGGCTACACGTGTTGGTCTAGAACATGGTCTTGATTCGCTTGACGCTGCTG	16800 a.u.
AGCTGGGAAAACTTCCATGTGGTCTTCGTCCTCAACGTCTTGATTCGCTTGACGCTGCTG	8780 a.u.
CACTACGGAAGAAGCGTCGTGGCCGGATGGAAAGCAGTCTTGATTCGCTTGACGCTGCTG	6830 a.u.
AAATTACTAAGTTGTCACTGTACTTACCCCGTATGAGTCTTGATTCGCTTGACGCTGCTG	3860 a.u.
AATTCCACACCGCACCATGTGCCCATCAAGTCCAACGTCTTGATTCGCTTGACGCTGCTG	11700 a.u.
TGCGCAACAACTTGAAAAGTGGGTGTATGTCTAGAAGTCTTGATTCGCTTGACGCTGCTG	4100 a.u.
CTCAGTGGTTAGAGCTTCGTGCTTTTAGCAACATTCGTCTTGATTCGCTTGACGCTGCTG	7360 a.u.
TAAGGTACTATCTTTGACGTGGCAATGCGGGATATTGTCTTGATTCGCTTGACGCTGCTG	4820 a.u.
AGTACAGTCTTGGACAATGTGACAGGGACCCTTGAAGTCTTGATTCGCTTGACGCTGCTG	4610 a.u.
GAGATGATATGTTTGCTGGTGTCGCACTGCCTTTCAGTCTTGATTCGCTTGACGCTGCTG	4190 a.u.
GTCTTGTCTCATTGGTTGGTGGGTGTCCCCACTTCAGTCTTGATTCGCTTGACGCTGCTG	5040 a.u.
TTTAATTTAATTCGGCATGTGGCCGGCAGGGTAATGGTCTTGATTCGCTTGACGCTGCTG	8600 a.u.
ATGGAGTTAATTCACCACGTTACTAAATAAGAGATTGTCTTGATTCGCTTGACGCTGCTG	10600 a.u.
ATTTCGGGGCGGGTCCCCGTGGTGACGCTGGTGACGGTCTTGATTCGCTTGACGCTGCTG	8720 a.u.
CGGGGTTAAGTTTGTGGTGTGGGTGGCTTGCAGCAGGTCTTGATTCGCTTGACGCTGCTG	6870 a.u.
CTGTGTTAACTTCAACACGTGAGGAATTTGCTTCATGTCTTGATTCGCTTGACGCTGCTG	16700 a.u.

Sample 4 — technique: RNA Bind-n-Seq; form: RNA; medium: in vitro; concentration: 365 nM; reference: no-protein control; reading: higher = stronger binding
Target: RNA binding protein fox-1 homolog 2, RRM domain, GST-SBP tag (RBFOX2, Homo sapiens, UniProt O43251-10, residues 100-194)
Notes: natural RNA segment, single round, ends assumed
Target sequence (chain): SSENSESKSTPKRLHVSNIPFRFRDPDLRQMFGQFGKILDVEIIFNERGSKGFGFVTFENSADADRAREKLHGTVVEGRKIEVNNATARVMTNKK
Strand	RBNS enrichment (R)
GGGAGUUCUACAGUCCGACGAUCCUGUGCCAUACUAUUGUUAAAAUGAACUGUUGCUAUUGUGAGAUGGAUUUCCUUUCGAAUGGCACUACCUUAGGGACAUUCUAGUAUUGCUUCUAUUGUUUGGGCAUUGUUGGAAUUCUCGGGUGCCAA	0.231
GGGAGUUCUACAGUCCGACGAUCAGUUGUUUGGUAAGGUUUGGGGUGUUUUUUGUUUUGUUUUGUUUUAAGUUUCCAAACAACCAAACUAAGAAAAAUGCUGGAUGCUUUUAGAAUACAAAACUUACUCAAGUUGGAAUUCUCGGGUGCCAA	2.45
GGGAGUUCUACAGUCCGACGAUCGCAGCUCAGGGAGUGUUUUCCUGUGAGGCCUCCCCCAUCAGUGGACCAGAGGGAGAAGCCCGAUGCCCCAUCCCGGCUUUCCCGUAACGCACAGGACACGUGUGCAAUUCUGGAAUUCUCGGGUGCCAA	0.336
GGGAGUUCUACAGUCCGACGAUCGCAGACCGAGUUAGUGUUUGAUGCGACUAUCUCCAUCCUUAGUAUGGAUGUGGUCAGUUCUGCACAAUUUGGUUUCAAACUAACUUUUUUUUCUUUCCUUUUUAAAAAUAUGGAAUUCUCGGGUGCCAA	0.657
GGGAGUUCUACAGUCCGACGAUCUUGCCUUUUUUUCUACAGGAGUUUUGAGUGUGAAAUGAAAAUUAAAGUUUGGUACAUAUAUUUAAAAUGCACCUCUAUUUUAUAUGAUGCUUAGGGUUGAGUGGGUGAUAUGGAAUUCUCGGGUGCCAA	1.04
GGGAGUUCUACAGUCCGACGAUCUACAAGUACAUUUAACAGAUCAUUUAUAAAGCAGGAGUCCAUUUUAACACUUACCGACUUUUUUUGGUUUGGAAACAUAUUACCACGUCUUAAUAGGAUGGUGCCCAUAUUGGAAUUCUCGGGUGCCAA	0.627
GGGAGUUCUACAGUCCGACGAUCCUCUCCUGCCCUCUGCUCUGCCUGGAGUGUCGGAUCCUGUGAGUAGGCUGGGCCUCCCCUGGGCAGGGUUCUCCAAGGGCCCGGUUUCCCGGCCCUUACCUUUCCUGAUGUGGAAUUCUCGGGUGCCAA	0.402
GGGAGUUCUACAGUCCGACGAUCAUGUGUAAUGGAGAUUGCCUCAAAAUUGUGUCCACAUAAUCCACGCUCAUCUUGCAAAGCGCUAUUUCAGGCACAUCAUUGGAAUACAGGAAGUAGCCCUGCACCUGCCAUGGAAUUCUCGGGUGCCAA	0.273
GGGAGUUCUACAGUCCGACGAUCAUGUCUGUAAUUUUGCUAGUUCAUGAACUGUAAUGUAAACAUCUGGUAUGAAGAAUAUCUGAUAUGCGACUCCUAUGAAAGGGUCGUUUGACCCCACCCCCAACCCCAAUUGGAAUUCUCGGGUGCCAA	0.381
